Measurements pooled from the literature.
Parts stem from different laboratories: compare values within a part only.

Sample 1 — method: RNA Bind-n-Seq; form: RNA; medium: in vitro; tested at: 365 nM; reference: no-protein control; reading: higher = stronger binding
Target: RNA binding protein fox-1 homolog 2, RRM domain, GST-SBP tag (RBFOX2, Homo sapiens, UniProt O43251-10, residues 100-194)
Setting: natural RNA segment, single round, ends assumed
Target sequence (chain): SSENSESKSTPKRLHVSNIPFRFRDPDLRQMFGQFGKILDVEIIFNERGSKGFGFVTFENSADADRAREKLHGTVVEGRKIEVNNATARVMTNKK
| Strand | RBNS enrichment (R) |
| --- | --- |
| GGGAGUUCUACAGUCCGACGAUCUUGGUGGGGUUCACUGCUCUGUUGUCCUGCUCUCUAACCACAGACAGGUAAGGAUUACCUUCUCUAGUGGUUCUUGCGAUUUGUCUGCCUAGGUGUGCUCCAGGUUGCCUUGGAAUUCUCGGGUGCCAA | 0.789 |
| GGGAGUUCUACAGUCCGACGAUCUACCUGCACAUCUGUUUGCAUGGUCAUGUGUACAUUCAAACAUGCACAUAAAGUGAACAAGAAAGUCAGCCAUUAUUUCACGCCAGACUUGAUUCCAUCCUGAGAAUUCAUGGAAUUCUCGGGUGCCAA | 0.233 |
| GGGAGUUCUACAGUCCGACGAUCGUGGUCCCUUGUUAGUACCGAAGUGCAAAAAAGAAAUGCAGUUCUGUGUUUGGAACAAGAAGCAUCUCAGCAUUCUGUGAGAUCUGCAUGGAUCCUGUGGGUGGAGUCAGUGGAAUUCUCGGGUGCCAA | 0.783 |
| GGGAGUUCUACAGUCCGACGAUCUUUGAUUAUAUUCAGAUUUCCAAACAAGUGCUGGCCUUCAGAUCAUAAGUAUAAGAAAUAUGCAUCAUAUCUGCCUAUUGCAGGCUUCUGAAACUUGCACUGCCCAUCCAUGGAAUUCUCGGGUGCCAA | 0.438 |
| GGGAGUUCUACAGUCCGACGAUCUGGAGACAAAAGUCCUAUUUUCUGUUUUCUUUUGUCUUUUGAUCUUUAAUUCACUAAUUAAUAGUGACCUGUUGUUAAAUCCAAAUCCACUUUGCUGAAAAAUACUGUACUGGAAUUCUCGGGUGCCAA | 0.605 |
| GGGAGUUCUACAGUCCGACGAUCGAAGCCCAAGGAACUGUGAGCAAUUAAAAGCAAACCGCGACACCCUUUGUCUCCACCACACAUAGUGUACUUUGGAAGCACAACGUCCAGGCUGGUACCGCAGCGCCAUGUGGAAUUCUCGGGUGCCAA | 0.262 |

Sample 2 — method: Spec-seq; form: double-stranded DNA, one strand shown; medium: in vitro; tested at: not given; setting: whole probe, mean of replicates; reference: not given; reading: lower = stronger binding
Target: Transcription factor SOX-2, HMG box (Sox2, Mus musculus, UniProt P48432, residues 41-119)
Chain of UniProt P48432 (41-119, looked up): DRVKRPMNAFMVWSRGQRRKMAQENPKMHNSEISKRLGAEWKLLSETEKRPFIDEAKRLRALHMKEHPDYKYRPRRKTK
All sequences stand within: GAGTCGTCTCGTCAGCAC … GTTCCGTAGAGCACTCAGGTC
| Strand | relative binding energy [ln ratio] |
| --- | --- |
| CAGT | -0.799 |
| GGCA | 1.06 |
| GCTA | 0.892 |
| GATA | -0.121 |
| TAGT | -0.591 |

Sample 3 — method: protein binding microarray; form: double-stranded DNA, one strand shown; medium: in vitro; tested at: not given; reference: not given; reading: higher = stronger binding
Target: Histone acetyltransferase KAT6A, winged helix 1, GST fusion (KAT6A, Homo sapiens, UniProt Q92794, residues 1-85)
Setting: 8-mer, flanks averaged, mean of 2 arrays, mostly near background
Residues (chain): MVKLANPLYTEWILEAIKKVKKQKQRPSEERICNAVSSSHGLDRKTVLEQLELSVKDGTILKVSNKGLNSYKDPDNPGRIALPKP
| Strand | E-score |
| --- | --- |
| CAGCGTGG | 0.15 |
| ACATTACA | -0.0384 |
| ATCCCAAG | -0.18 |
| TATTGACA | -0.0282 |
| AAATTAGC | 0.0927 |
| AGGCATAC | -0.166 |
| CTAGCGGA | 0.16 |

Other studies, line by line
| Molecule | target | test | test system | setting | scale | endpoint | value |
| --- | --- | --- | --- | --- | --- | --- | --- |
| PhoQ, residues 284 288 289 292 302 303 SLCLSL | PhoP, residues 12 14 15 18 19 NMSFL (Escherichia coli, UniProt P23836) | Sort-seq, refers to: YFP reporter | E. coli | PhoQ-PhoP variant library, with: 10 µM Mg2+ | reference: high Mg2+ state, higher = stronger signaling | fold induction | 1.94 |

Some of these lines once more (sample 3):
| Strand | E-score |
| --- | --- |
| AGGCATAC | -0.166 |
| CTAGCGGA | 0.16 |
